# Measurements pooled from the literature.
# Compare with care: the assays were run in different laboratories. ± gives the spread as reported.
# Organism: Pseudomonas aeruginosa
SMILES,assay,test system,conditions,how to read,endpoint,value
NCCCC[C@H](NC(=O)[C@@H]1CSCC(=O)N[C@@H](CCCCN)C(=O)N[C@@H](Cc2ccccc2)C(=O)N[C@@H](CCCCN)C(=O)N[C@H]2CCCCNC(=O)[C@H](CCCCN)NC(=O)[C@H](Cc3ccccc3)NC(=O)[C@H](CCCCN)NC(=O)CSC[C@H](NC(=O)[C@H](Cc3ccccc3)NC(=O)[C@H](Cc3ccccc3)NC(=O)[C@H](CCCCN)NC2=O)C(=O)N[C@@H](Cc2ccccc2)C(=O)N[C@@H](Cc2ccccc2)C(=O)N[C@@H](Cc2ccccc2)C(=O)N1)C(N)=O,,PAO1,24 to 25 h,,minimal biofilm inhibitory concentration,32 µg/mL
CC[C@H](C)[C@H](NC(=O)CNC(=O)[C@H](CCSC)NC(=O)[C@H](CC(C)C)NC(=O)[C@H](CCCCN)NC(=O)[C@@H](N)CC(C)C)C(=O)N[C@H](C(=O)N[C@@H](CCCCN)C(=O)N[C@@H](CCCCN)C(=O)N[C@H](C(=O)N[C@@H](CC(C)C)C(=O)N[C@@H](CCCCN)C(=O)N[C@@H](C)C(=O)N[C@@H](CC(C)C)C(N)=O)C(C)C)C(C)C,,PAO1,concentration not given,relative to: MIC of template peptide over MIC,fold activity increase,8 fold
CC[C@H](C)[C@H](NC(=O)[C@H](Cc1c[nH]cn1)NC(=O)[C@H](CCCCNC(=O)[C@@H](NC(=O)[C@H](CCCCN)NC(=O)CSC[C@H](NC(=O)[C@H](Cc1ccccc1)NC(=O)[C@H](CCCCNC(=O)[C@H](CC(C)C)NC(=O)[C@@H]1CCCN1C(=O)[C@H](CCCCN)NC(=O)c1ccc(O[C@@H]2O[C@H](CO)[C@H](O)[C@H](O)[C@H]2O)cc1)NC(=O)[C@H](CC(C)C)NC(=O)[C@@H]1CCCN1C(=O)[C@H](CCCCN)NC(=O)c1ccc(O[C@@H]2O[C@H](CO)[C@H](O)[C@H](O)[C@H]2O)cc1)C(N)=O)[C@@H](C)CC)NC(=O)[C@@H](NC(=O)[C@H](CCCCN)NC(=O)CSC[C@H](NC(=O)[C@H](Cc1ccccc1)NC(=O)[C@H](CCCCNC(=O)[C@H](CC(C)C)NC(=O)[C@@H]1CCCN1C(=O)[C@H](CCCCN)NC(=O)c1ccc(O[C@@H]2O[C@H](CO)[C@H](O)[C@H](O)[C@H]2O)cc1)NC(=O)[C@H](CC(C)C)NC(=O)[C@@H]1CCCN1C(=O)[C@H](CCCCN)NC(=O)c1ccc(O[C@@H]2O[C@H](CO)[C@H](O)[C@H](O)[C@H]2O)cc1)C(N)=O)[C@@H](C)CC)C(N)=O,,PAO1,biofilm-forming conditions,,MBC,30 µM
CC[C@H](C)[C@H](NC(=O)[C@H](CCCNC(=N)N)NC(=O)[C@@H](NC(=O)[C@H](C)NC(=O)[C@@H](NC(=O)[C@@H](NC(=O)[C@H](CC(C)C)NC(=O)[C@H](CCCNC(=N)N)NC(=O)[C@@H](N)C(C)C)[C@@H](C)CC)C(C)C)C(C)C)C(=O)N[C@@H](Cc1c[nH]c2ccccc12)C(=O)N[C@@H](CCCNC(=N)N)C(=O)N[C@@H](CCCNC(=N)N)C(N)=O,,"PAO1, Galleria mellonella larvae","proleg injection, 20 µg per larva, 48 h post infection, 37 °C, dosed 1 h after infection",,survival,3 ± 5%
CCCCCCCC(=O)NCC(=O)N[C@@H](CC(C)C)C(=O)N[C@@H](CC(C)C)C(=O)N[C@@H](CCCCN)C(=O)N[C@@H](CCCNC(=N)N)C(=O)N[C@H](C(=O)N[C@@H](CCCCN)C(=O)N[C@H](C(=O)N[C@@H](CC(C)C)C(=O)N[C@@H](CC(C)C)C(N)=O)[C@@H](C)O)[C@@H](C)CC,checkerboard,ATCC 27853,with: polymyxin B,,FIC index,0.375
CC[C@H](C)[C@H](NC(=O)[C@H](Cc1c[nH]cn1)NC(=O)[C@H](CCCCNC(=O)[C@@H](NC(=O)[C@H](CCCCN)NC(=O)CSC[C@H](NC(=O)[C@H](Cc1ccccc1)NC(=O)[C@H](CCCCNC(=O)[C@H](CC(C)C)NC(=O)[C@@H]1CCCN1C(=O)[C@H](CCCCN)NC(=O)C[C@@H]1O[C@@H](C)[C@@H](O)[C@@H](O)[C@@H]1O)NC(=O)[C@H](CC(C)C)NC(=O)[C@@H]1CCCN1C(=O)[C@H](CCCCN)NC(=O)C[C@@H]1O[C@@H](C)[C@@H](O)[C@@H](O)[C@@H]1O)C(N)=O)[C@@H](C)CC)NC(=O)[C@@H](NC(=O)[C@H](CCCCN)NC(=O)CSC[C@H](NC(=O)[C@H](Cc1ccccc1)NC(=O)[C@H](CCCCNC(=O)[C@H](CC(C)C)NC(=O)[C@@H]1CCCN1C(=O)[C@H](CCCCN)NC(=O)C[C@@H]1O[C@@H](C)[C@@H](O)[C@@H](O)[C@@H]1O)NC(=O)[C@H](CC(C)C)NC(=O)[C@@H]1CCCN1C(=O)[C@H](CCCCN)NC(=O)C[C@@H]1O[C@@H](C)[C@@H](O)[C@@H](O)[C@@H]1O)C(N)=O)[C@@H](C)CC)C(N)=O,,PAO1,biofilm-forming conditions,,MBC,> 45 µM
CCCCCC(=O)NCC(=O)N[C@@H](CC(C)C)C(=O)N[C@@H](CC(C)C)C(=O)N[C@@H](CCCCN)C(=O)N[C@@H](CCCNC(=N)N)C(=O)N[C@H](C(=O)N[C@@H](CCCCN)C(=O)N[C@H](C(=O)N[C@@H](CC(C)C)C(=O)N[C@@H](CC(C)C)C(=O)NCCCC[C@H](NC(=O)[C@H](CC(C)C)NC(=O)[C@H](CC(C)C)NC(=O)[C@@H](NC(=O)[C@H](CCCCN)NC(=O)[C@@H](NC(=O)[C@H](CCCNC(=N)N)NC(=O)[C@H](CCCCN)NC(=O)[C@H](CC(C)C)NC(=O)[C@H](CC(C)C)NC(=O)CNC(=O)CCCCC)[C@@H](C)CC)[C@@H](C)O)C(N)=O)[C@@H](C)O)[C@@H](C)CC,checkerboard,ATCC 27853,with: polymyxin B,,FIC index,0.25
CC[C@H](C)[C@H](NC(=O)[C@H](CCCCN)NC(=O)[C@H](CCCCN)NC(=O)[C@H](CC(C)C)NC(=O)[C@H](CCCCN)NC(=O)[C@H](CCC(=O)O)NC(=O)[C@H](CCCCN)NC(=O)[C@@H](NC(=O)[C@H](CCCCN)NC(=O)[C@H](CC(N)=O)NC(=O)[C@H](CCCNC(=N)N)NC(=O)[C@H](Cc1ccccc1)NC(=O)[C@H](CCCCN)NC(=O)[C@H](CCCNC(=N)N)NC(=O)[C@H](CC(C)C)NC(=O)[C@H](CCCNC(=N)N)NC(=O)[C@H](CCCCN)NC(=O)[C@H](CCCNC(=N)N)NC(=O)[C@H](CC(C)C)NC(=O)CN)[C@@H](C)CC)C(=O)NCC(=O)N[C@@H](CCC(N)=O)C(=O)N[C@@H](CCCCN)C(=O)N[C@H](C(=O)N[C@@H](CCC(N)=O)C(=O)NCC(=O)N[C@@H](Cc1ccccc1)C(=O)N[C@H](C(=O)N1CCC[C@H]1C(=O)N[C@@H](CCCCN)C(=O)N[C@@H](CC(C)C)C(=O)N[C@@H](C)C(=O)N1CCC[C@H]1C(=O)N[C@@H](CCCNC(=N)N)C(=O)N[C@H](C(=O)N[C@@H](CC(=O)O)C(=O)N[C@@H](Cc1ccc(O)cc1)C(=O)O)[C@@H](C)O)C(C)C)[C@@H](C)CC,inhibition zone method,"11092304, LB 0.8% agar with 154 mM NaCl","overnight, 37 °C",,lethal concentration,3.13 µM
C[C@@](O)(C(F)F)[C@H](NC(=O)c1ccc(C#CC#CC2CC2)cc1)C(=O)NO,agar dilution,"clinical isolates, susceptible and MDR/XDR",,,MIC90,1 µg/mL
CC[C@H](C)[C@H](NC(=O)[C@H](CCCCN)NC(=O)[C@H](CCCCN)NC(=O)[C@H](CC(C)C)NC(=O)[C@H](CCCCN)NC(=O)[C@H](CCC(=O)O)NC(=O)[C@H](CCCCN)NC(=O)[C@@H](NC(=O)[C@H](CCCCN)NC(=O)[C@H](CC(N)=O)NC(=O)[C@H](CCCNC(=N)N)NC(=O)[C@H](Cc1ccccc1)NC(=O)[C@H](CCCCN)NC(=O)[C@H](CCCNC(=N)N)NC(=O)[C@H](CC(C)C)NC(=O)[C@H](CCCNC(=N)N)NC(=O)[C@H](CCCCN)NC(=O)[C@H](CCCNC(=N)N)NC(=O)[C@H](CC(C)C)NC(=O)[C@@H](N)CC(C)C)[C@@H](C)CC)C(=O)NCC(=O)N[C@@H](CCC(N)=O)C(=O)N[C@@H](CCCCN)C(=O)N[C@H](C(=O)N[C@@H](CCC(N)=O)C(=O)NCC(=O)N[C@@H](Cc1ccccc1)C(=O)N[C@H](C(=O)N1CCC[C@H]1C(=O)N[C@@H](CCCCN)C(=O)N[C@@H](CC(C)C)C(=O)N[C@H](C(=O)N1CCC[C@H]1C(=O)N[C@@H](CCCNC(=N)N)C(=O)N[C@H](C(=O)N[C@@H](CCC(=O)O)C(=O)N[C@@H](CO)C(=O)O)[C@@H](C)O)C(C)C)C(C)C)[C@@H](C)CC,inhibition zone,DH,,,lethal concentration,2.89 µM
O=C1NC(=O)c2c(NCCCc3cccc(O)c3)cccc21,,PAO1,"concentration not given, 18 h, with: levofloxacin 0.5 µg/mL",relative to: levofloxacin alone,survival reduction,~50 fold
CC[C@H](C)[C@H](NC(=O)[C@H](CCCCN)NC(=O)[C@H](CCCCN)NC(=O)[C@H](CC(C)C)NC(=O)[C@H](CCCCN)NC(=O)[C@H](CCC(=O)O)NC(=O)[C@H](CCCCN)NC(=O)[C@@H](NC(=O)[C@H](CCCCN)NC(=O)[C@H](CC(N)=O)NC(=O)[C@H](CCCNC(=N)N)NC(=O)[C@H](Cc1ccccc1)NC(=O)[C@H](CCCCN)NC(=O)[C@H](CCCNC(=N)N)NC(=O)[C@H](CC(C)C)NC(=O)[C@H](CCCNC(=N)N)NC(=O)[C@H](CCCCN)NC(=O)[C@H](CCCNC(=N)N)NC(=O)[C@@H](N)CC(C)C)[C@@H](C)CC)C(=O)NCC(=O)N[C@@H](CCC(N)=O)C(=O)N[C@@H](CCCCN)C(=O)N[C@H](C(=O)N[C@@H](CCC(N)=O)C(=O)NCC(=O)N[C@@H](Cc1ccccc1)C(=O)N[C@H](C(=O)N1CCC[C@H]1C(=O)N[C@@H](CCCCN)C(=O)N[C@@H](CC(C)C)C(=O)O)C(C)C)[C@@H](C)CC,inhibition zone,FRD1,"LB agar, overnight",,lethal concentration,3.33 µM
Nc1ccccc1C(=O)NS(=O)(=O)OC[C@H]1O[C@@H](n2cnc3c(N)ncnc32)[C@H](O)[C@@H]1O,"PQS production, LC-MS/MS",PA14,"1500 µM, 20 h",,inhibition,77%
